# Experimental data gathered from unrelated publications.
SMILES,test,test system,setting,solubility
C(#Cc1cncc(OC[C@@H]2CCN2)c1)c1ccccc1,,aqueous buffer,"24 h, pH 6.8",604 µg/mL
O=P([O-])([O-])Oc1ccc(-c2cc(=S)ss2)cc1.[Na+].[Na+],HPLC,water,"1 h, 25 °C",2080 µg/mL
O=C1C(O)=C(Nc2ccc(Cl)cc2)C(=O)c2ccccc21,,water,12 h,100 µM
O=c1c2ccccc2[se]n1CCCn1[se]c2ccccc2c1=O,HPLC,water,"24 h, 25 °C",4 to 5 µg/mL
O=C(CN1CCN(c2cc3c(cc2F)c(=O)c(C(=O)O)cn3C2CC2)CC1)Nc1ccc(Cl)cc1,,water,,22.7 µg/mL
C[C@]12C(=O)[C@](C)(C(c3ccccc3)=C1c1ccccc1)C1(Br)C(=O)N(CCN)C(=O)C12 (some centres unmarked),HPLC,water,20 °C,10800 µg/mL
CC(C)(C)c1ccc(COc2cc3c(=O)c(C(=O)NCCNCCO)cn(Cc4ccccc4)c3cc2Cl)cc1,shake flask,PBS,"24 h, pH 6.5, 25 °C",< 5 µM
O=c1c2ccccc2[se]n1CCn1[se]c2ccccc2c1=O,HPLC,water,"24 h, 25 °C",2 to 3 µg/mL
CC(C)[C@H](NC(=O)[C@H]1NC(=O)[C@H](CO)NC(=O)[C@H](CC(N)=O)NC(=O)[C@@H](N)Cc2c[nH]c3cc(ccc23)C1C(N)=O)C(=O)N[C@H]1Cc2cn(cn2)C(c2ccc(O)cc2)[C@@H](C(=O)N[C@@H](CCCNC(=N)N)C(=O)N[C@@H](Cc2ccccc2)C(=O)O)NC(=O)[C@H](CO)NC1=O (some centres unmarked),,water,,> 200000 µg/mL
CC12C(=O)C(C)(C(c3ccccc3)=C1c1ccccc1)C1(Br)C(=O)N(CCC(=O)NCCN)C(=O)C21 (centres unmarked),HPLC,water,20 °C,3200 µg/mL
CC1N=C(c2ccccc2F)c2cc(Nc3ccccc3C(F)(F)F)ccc2NC1=O (centres unmarked),shake flask,PBS,"24 h, pH 7.4",8.09 µM

# For quick reference, copied from above:
SMILES,test,test system,setting,solubility
O=C1C(O)=C(Nc2ccc(Cl)cc2)C(=O)c2ccccc21,,water,12 h,100 µM
